Measurements gathered from unrelated publications.
Numbers after ± are the reported error.
HCRTR1: Orexin/Hypocretin receptor type 1 (HCRTR1, Homo sapiens, UniProt O43613)
LRP1 CR5 domain: LRP1, CR5 domain (Homo sapiens, UniProt Q07954)
PPIA: Peptidyl-prolyl cis-trans isomerase A (PPIA, Homo sapiens, UniProt P62937)
GRB2: Growth factor receptor-bound protein 2 (GRB2, Homo sapiens, UniProt P62993)

`N#Cc1cccc(CN2CCc3ncn(Cc4ccc(Cl)cc4)c(=O)c3C2)c1` gave a Kd of 0.0322 ± 0.0063 µM (ATP-dependent Clp protease proteolytic subunit, mitochondrial (CLPP, Homo sapiens, UniProt Q16740); casein-FITC degradation, activator).
`NC[C@@H]1O[C@H](O[C@H]2[C@@H](O)[C@H](O[C@@H]3[C@@H](O)[C@H](N)C[C@H](N)[C@H]3O[C@H]3O[C@H](CN)[C@@H](O)[C@H](O)[C@H]3N)O[C@@H]2CO)[C@H](N)[C@@H](O)[C@@H]1O` has a Kd of 1 ± 0.2 µM (HIV-1 SL4 RNA stem-loop; binding, ESI-FTMS titration; pH 7.5).
The Kd of `phosphatidylinositol 3,4,5-trisphosphate` is reported as over 100 µM (Src kinase-associated phosphoprotein 2, PH domain (Skap2, Mus musculus, UniProt Q3UND0, R140M); fluorescence polarization direct titration; pH 6.5, 21 °C, compound labelled with BODIPY TMR-X).
`COc1ccc(CC2c3cc(OC)c(OC)cc3CCN2CC(=O)NCc2ccc(F)cc2)cc1OC` (stereo not shown) has a Kd of 0.279 ± 0.081 µM (HCRTR1).
For `COC(=O)[C@H](CCCCN)NC(C)=O`, the Kd was 1600 ± 150 µM (LRP1 CR5 domain; binding, tryptophan fluorescence titration; isolated CR5 domain; pH 7.4, 298 K, ionic strength 0.02).
The Kd of `O=C1OC2(c3ccccc31)c1ccc(O)c(O)c1Oc1c2ccc(O)c1O` is reported as 0.325 µM (Guanine nucleotide-binding protein G(I)/G(S)/G(T) subunit beta-1, with gamma subunit (Homo sapiens, UniProt P62873); binding, SPR).
`CN(C)[C@@H]1C(O)=C(C(N)=O)C(=O)[C@@]2(O)C(O)=C3C(=O)c4c(O)ccc(Cl)c4[C@@](C)(O)[C@H]3C[C@@H]12` gave a Kd of 884 ± 300 µM (HIV-1 SL3 RNA stem-loop; binding, ESI-FTMS titration; pH 7.5).
With `COC(=O)[C@@H](N)CCCCN` the Kd was 280 ± 10 µM (LRP1 CR5 domain; binding, tryptophan fluorescence titration; isolated CR5 domain; pH 7.4, 298 K, ionic strength 0.02).
With `NC[C@@H]1O[C@H](O[C@H]2[C@@H](O)[C@H](O[C@@H]3[C@@H](O)[C@H](N)C[C@H](N)[C@H]3O[C@H]3O[C@H](CO)[C@@H](O)[C@H](O)[C@H]3N)O[C@@H]2CO)[C@H](N)[C@@H](O)[C@@H]1O` the Kd was 37.7 ± 1.3 µM (HIV-1 SL3 RNA stem-loop; binding, ESI-FTMS titration; pH 7.5).
With `CN(CCOc1ccc(CC2SC(=O)NC2=O)cc1)c1ccccn1` (stereo not shown) the Kd was 0.11 ± 0.08 µM (Cytochrome P450 2C8 (CYP2C8, Homo sapiens, UniProt P10632, K399R/R139K); binding, equilibrium spectral titration; purified enzyme; pH 7.4, 25 °C, second site, two-site model, added: 2 µM enzyme).
With `N=C(N)c1ccc(NCCCNc2ccc(C(=N)N)cc2)cc1` the Kd was 2.7 ± 0.4 µM (CTG·CAG repeat hairpin DNA; fluorescence titration; 11 CTG·CAG repeats).
For `CC1=C(/C=C/C(C)=C/C=C/C(C)=C/C=C/C=C(C)/C=C/C=C(C)/C=C/C2=C(C)C[C@@H](O)CC2(C)C)C(C)(C)C[C@H](O)C1`, the Kd was 0.14 ± 0.02 µM (Glutathione S-transferase P (GSTP1, Homo sapiens, UniProt P09211); surface plasmon resonance; 25 °C, 1:1 binding model).
For `O=C1c2c(O)ccc(O)c2C(=O)c2c(NCCNCCO)ccc(NCCNCCO)c21`, the Kd was 10 ± 0.7 µM (HIV-1 SL4 RNA stem-loop; binding, ESI-FTMS titration; pH 7.5).
For `O=C(c1cc(-c2cc(F)cc([N+](=O)[O-])c2O)cc([N+](=O)[O-])c1O)C1CCc2ccccc21` (stereo not shown), the Kd was 0.54 µM (PPIA; ligand displacement, FP; pH 7.8).
`COc1ccc(CC2c3cc(OC)c(OC)cc3CCN2CC(=O)NCc2ccc(N(C)C)cc2)cc1OC` (stereo not shown) has a Kd of 3.23 ± 1.3 µM (HCRTR1).
`CC[C@H](C)[C@H](NC(=O)[C@H](C)N)C(=O)N1CCC[C@H]1C(=O)N1CCC[C@H]1C(=O)N1CCC[C@H]1C(=O)N[C@@H](CCCNC(=N)N)C(=O)N1CCC[C@H]1C(=O)N1CCC[C@H]1C(=O)N[C@@H](CCCCN)C(=O)N1CCC[C@H]1C(=O)N[C@@H](Cc1c[nH]cn1)C(=O)N1CCC[C@H]1C(=O)O` gave a Kd of 179 µM (GRB2; binding, ITC; pH 8).
With `O=P(O)(O)O[C@H]1[C@H](OP(=O)(O)O)[C@@H](O)[C@H](O)[C@H](O)[C@@H]1OP(=O)(O)O` the Kd was 159 µM (Fermitin family homolog 2, PH domain (Fermt2, Mus musculus, UniProt Q8CIB5); SPR; pH 7.5, biotinylated compound immobilised).
`Cc1cc(N(C)C)nc(Nc2ccc(NC(=O)Nc3ccccc3)cc2)n1` gave a Kd of 14.8 µM (Ezrin (EZR, Homo sapiens, UniProt P15311); binding, SPR).
`CC[C@H](C)[C@H](NC(=O)[C@@H](N)CC(=O)O)C(=O)N1CCC[C@H]1C(=O)N1CCC[C@H]1C(=O)N1CCC[C@H]1C(=O)N[C@@H](CCCNC(=N)N)C(=O)N1CCC[C@H]1C(=O)N1CCC[C@H]1C(=O)N[C@@H](CCCCN)C(=O)N1CCC[C@H]1C(=O)N[C@@H](Cc1c[nH]cn1)C(=O)N[C@@H](C)C(=O)O` gave a Kd of 295 µM (GRB2; binding, ITC; pH 8).
`c1ccc2[nH]nnc2c1` gave a Kd of 150 µM (CYP2E1 (Oryctolagus cuniculus, UniProt P08682); binding, type II spectral titration; pH 7.4, 25 °C, first catalytic site).
`CC[C@H](C)[C@H](NC(=O)[C@@H](N)CC(=O)O)C(=O)N1CCC[C@H]1C(=O)N1CCC[C@H]1C(=O)N1CCC[C@H]1C(=O)N[C@@H](CCCNC(=N)N)C(=O)N1CCC[C@H]1C(=O)N1CCC[C@H]1C(=O)N[C@@H](CCCCN)C(=O)N[C@@H](C)C(=O)N[C@@H](Cc1c[nH]cn1)C(=O)N1CCC[C@H]1C(=O)O` gave a Kd of 486 µM (GRB2; binding, ITC; pH 8).
`TNP-ATP trisodium salt` gave a Kd of 0.33 ± 0.16 µM (msbA (Escherichia coli, UniProt P60752, L511P); fluorescence titration).
The Kd of `COc1ccc(CC2c3cc(OCC(F)(F)F)c(OC)cc3CCN2CC(=O)NCc2cccnc2)cc1OC` (stereo not shown) is reported as 0.0085 ± 0.001 µM (HCRTR1).
With `CC(C)[C@@H](NC(=O)[C@@H](CC(=O)O)NC(=O)c1ccc(S(N)(=O)=O)cc1)C(=O)N[C@H](CC(=O)O)C(=O)N[C@H](CC(=O)O)C(=O)N[C@H](Cc1ccc(O)cc1)C(N)=O` the Kd was 0.082 µM (Carbonic anhydrase 2 (CA2, Homo sapiens, UniProt P00918); binding, SPR).
`COc1ccc(CC2c3cc(OCCCCN(C)C)c(OC)cc3CCN2CC(=O)NCc2ccccc2)cc1OC` (stereo not shown) gave a Kd of 5.74 ± 3.6 µM (HCRTR1).
`CC(=O)N[C@@H](CCC(=O)O)C(=O)N[C@H](C(=O)N[C@@H](CC(C)C)C(=O)N[C@H](C(=O)N[C@@H](CCCNC(=N)N)C(=O)N1CCC[C@H]1C(=O)N[C@@H](CCCCN)C(=O)N1CCC[C@H]1C(=O)N[C@@H](CC(C)C)C(=O)N[C@@H](CC(C)C)C(=O)N[C@@H](CC(C)C)C(=O)N[C@@H](CCCCN)C(=O)N[C@@H](CC(C)C)C(=O)N[C@@H](CC(C)C)C(=O)N[C@@H](CCCCN)C(=O)N[C@@H](CO)C(=O)N[C@H](C(=O)NCC(=O)N[C@@H](C)C(=O)N[C@@H](Cc1ccc(O)cc1)C(N)=O)C(C)C)C(C)C)[C@@H](C)O` has a Kd of 0.1 ± 0.02 µM (Protein S100-B (Homo sapiens, UniProt P04271); binding, NMR line shape analysis; 35 °C, low salt).
For `CSCC[C@H](NC(=O)[C@H](CC(N)=O)NC(=O)[C@H](CC(N)=O)NC(=O)[C@H](CC(N)=O)NC(=O)[C@H](C)N)C(=O)N[C@@H](Cc1ccc(O)cc1)C(=O)N[C@@H](CCCNC(=N)N)C(=O)N[C@@H](CCCNC(=N)N)C(=O)O`, the Kd was 1.77 µM (dnaK (Escherichia coli, UniProt P0A6Y8); peptide binding, surface plasmon resonance; added: ATP).
`COC(=O)c1cc(Cc2ccc(NCc3ccccc3)c(C(=O)OC)c2)ccc1NCc1ccccc1` has a Kd of 414 µM (PPIA; binding, SPR; pH 7.4).
The Kd of `CC(=O)O[C@H]1C(=O)[C@@]2(C)[C@H]([C@H](OC(=O)c3ccccc3)[C@]3(O)C[C@H](OC(=O)[C@H](O)[C@@H](NC(=O)c4ccccc4)c4ccccc4)C(C)=C1C3(C)C)[C@]1(OC(C)=O)CO[C@@H]1C[C@@H]2O` is reported as 0.42 ± 0.06 µM (Cytochrome P450 2C8 (CYP2C8, Homo sapiens, UniProt P10632); ligand binding, equilibrium spectral binding; purified protein; pH 7.4, 25 °C, high-affinity site, 1% CHAPS).
`Nc1nc2c(ncn2[C@@H]2O[C@H](COP(=O)(O)OP(=O)(O)OP(=O)(O)O)[C@@H](O)[C@H]2O)c(=O)[nH]1` gave a Kd of 11.6 µM (parM (Escherichia coli, UniProt P11904); cell-free assay).
With `C[C@H](N)C(=O)N[C@H](CCC(=O)O)C(N)=O` the Kd was 0.668 µM (NACHT, LRR and PYD domains-containing protein 1 (NLRP1, Homo sapiens, UniProt Q9C000); binding, SPR).
`Nc1ncnc2c1ncn2[C@@H]1O[C@H](COP(=O)(O)OP(=O)(O)OP(=O)(O)O)[C@@H](O)[C@H]1O` gave a Kd of 8.1 µM (Dual specificity mitogen-activated protein kinase kinase 1 (MAP2K1, Homo sapiens, UniProt Q02750)).
`c1ccc(Nc2cccc3ccccc23)cc1` has a Kd of 8.88 µM (chemosensory protein CSP2, Chilo suppressalis; binding, fluorescent probe, fluorescence titration; pH 7.4).
`O=C(O)CC(O)(CC(=O)O)C(=O)O` gave a Kd of at least 48000 µM (SLC4A1 (Homo sapiens, UniProt P02730); Cl- exchange, inhibitor, 36Cl flux; erythrocytes; pH 8, trivalent form only).
For `COc1cc2c(cc1O)C(Cc1ccc(OC)c(OC)c1)N(CC(=O)NCc1ccccc1)CC2` (stereo not shown), the Kd was 1.53 ± 0.53 µM (HCRTR1).
With `Oc1ccc2ccccc2c1` the Kd was 0.46 µM (alpha-2u-globulin (Rattus rattus); binding, fluorescence titration; pH 7.2).
The Kd of `Aspartic acid methyl ester` is reported as 59000 ± 2000 µM (LRP1 CR5 domain; tryptophan fluorescence titration; pH 5.5, CR5 domain, low ionic strength).
`COc1ccc(CC2c3cc(OC)c(OC)cc3CCN2CC(=O)NCCc2ccccc2)cc1OC` (stereo not shown) gave a Kd of 3.25 ± 0.23 µM (HCRTR1).
For `O=C(O)c1cc(=O)[nH]c(=O)n1[C@@H]1OC[C@@H](O)[C@H]1O`, the Kd was over 100000 µM (Orotidine 5'-phosphate decarboxylase (Saccharomyces cerevisiae S288c, UniProt P03962, S154A/Q215A); HPLC initial velocity; 25 °C, lower limit, no saturation).
For `COc1ccc(CC2c3cc(OC)c(OC)cc3CCN2CC(=O)NCc2ccc(Cl)cc2)cc1OC` (stereo not shown), the Kd was 0.162 ± 0.016 µM (HCRTR1).
The Kd of `COC(=O)[C@@H](N)CCCN=C(N)N` is reported as 760 ± 80 µM (LRP1 CR5 domain; tryptophan fluorescence titration; pH 7.4, 298 K, CR5 domain, ionic strength 0.17).
`COc1ccc(CC2c3cc(OC)c(OC)cc3CCN2CC(=O)Nc2ccccc2-c2ccccc2)cc1OC` (stereo not shown) gave a Kd of 0.944 ± 0.16 µM (HCRTR1).
With `CC1N=C(N)N(CCCC(N)C(=O)O)C1=O` (stereo not shown) the Kd was 0.031 µM (Advanced glycosylation end product-specific receptor (AGER, Homo sapiens, UniProt Q15109); binding, fluorescence; pH 6.5).

For quick reference, copied from above:
`NC[C@@H]1O[C@H](O[C@H]2[C@@H](O)[C@H](O[C@@H]3[C@@H](O)[C@H](N)C[C@H](N)[C@H]3O[C@H]3O[C@H](CN)[C@@H](O)[C@H](O)[C@H]3N)O[C@@H]2CO)[C@H](N)[C@@H](O)[C@@H]1O` has a Kd of 1 ± 0.2 µM (HIV-1 SL4 RNA stem-loop; binding, ESI-FTMS titration; pH 7.5).
The Kd of `phosphatidylinositol 3,4,5-trisphosphate` is reported as over 100 µM (Src kinase-associated phosphoprotein 2, PH domain (Skap2, Mus musculus, UniProt Q3UND0, R140M); fluorescence polarization direct titration; pH 6.5, 21 °C, compound labelled with BODIPY TMR-X).
`COc1ccc(CC2c3cc(OC)c(OC)cc3CCN2CC(=O)NCc2ccc(F)cc2)cc1OC` (stereo not shown) has a Kd of 0.279 ± 0.081 µM (HCRTR1).
For `COC(=O)[C@H](CCCCN)NC(C)=O`, the Kd was 1600 ± 150 µM (LRP1 CR5 domain; binding, tryptophan fluorescence titration; isolated CR5 domain; pH 7.4, 298 K, ionic strength 0.02).
The Kd of `O=C1OC2(c3ccccc31)c1ccc(O)c(O)c1Oc1c2ccc(O)c1O` is reported as 0.325 µM (Guanine nucleotide-binding protein G(I)/G(S)/G(T) subunit beta-1, with gamma subunit (Homo sapiens, UniProt P62873); binding, SPR).
